Published values pooled from the literature.
Each line is one published result; not all experiments were run side by side. Several values in a cell are separate wells, animals, samples, runs or records.
CAMK2D: Calcium/calmodulin-dependent protein kinase type II subunit delta (CAMK2D, Homo sapiens, UniProt Q13557)
TDP1: Tyrosyl-DNA phosphodiesterase 1 (TDP1, Homo sapiens, UniProt Q9NUW8)

`COc1c(OCCCN2CCOCC2)ccc2c1N=C(NC(=O)c1cnc(N)nc1)N1CCN=C21` gave a remaining activity of 93% (CAMK2D; kinase activity, inhibitor; 1 µM; baseline: untreated control).
`O=C(Cc1ccc(OCc2ccccc2)cc1)NC1(C(=O)O)CCN(C(=O)c2ccc(-c3cccc(Cl)c3)cc2)CC1` — result for “activity vs control”: 104% (CAMK2D; enzyme activity, inhibitor; 10 µM).
With `Nc1ncc(-c2cc(-c3cnn(CC(F)(F)F)c3)ncc2F)nc1C(=O)NC1CNCC(F)C1` (centres unmarked) the remaining activity was 88.3% (CAMK2D; enzyme activity; 1 µM; baseline: DMSO control).
`CCn1cc(C(=O)O)c(=O)c2c(N)c(F)c(NC3CCCCC3)cc21` gave an inhibition of -9% (CAMK2D; kinase activity; 0.1 µM, together with: ATP at Km).
`NC(=O)C[C@H]1CCc2sc3ncnc(O[C@H]4CC[C@H](N5CCOCC5)CC4)c3c21` gave an inhibition of 15% (CAMK2D; enzyme activity, inhibitor; 10 µM).
`CCN1CCN(Cc2ccc(C(=O)Nc3ccc(C)c(NCc4cnc5[nH]ccc5c4OC)c3)cc2C(F)(F)F)CC1` gave a remaining binding of 100% (CAMK2D; binding, competition with immobilised ligand; 1 µM).
For `C=CC(=O)Nc1cccc(-c2cnc3[nH]cc(C(=O)NC(C)(C)C)c3n2)c1`, the inhibition was 0% and -2% (CAMK2D; kinase activity; 0.1 µM).
`C=CC(=O)Nc1cc(-c2nn(C3CCN(CCNC(=O)[C@H](C)CCC45CC6CC(CC(C6)C4)C5)CC3)c3ncnc(N)c23)ccc1Oc1ccccc1` gave an inhibition of 11.9% (CAMK2D; inhibitor, KiNativ profiling; biochemical; 2 µM).
For `O=C(O)c1ccc(Nc2c(-c3ccc(CON=Cc4cn(Cc5ccc(Cl)cc5)nn4)cc3)nc3cc(-c4ccccc4)ccn23)cc1` (mixture of isomers), the inhibition was 45.7% (TDP1; enzyme activity, inhibitor; 100 µM, unpurified compound).
`COc1cc(Nc2nc(C)cc(-c3cnn4nc(OC)ccc34)n2)cc(C(F)(F)F)c1` gave a remaining activity of 100% (CAMK2D; inhibitor; 1 µM; baseline: control).
With `CC(C)=CC1OC(C)(C)C2C=C3C(=O)C(Cl)=CC(O)C3C3C(O)C4OC4C(=O)C132` (centres unmarked) the remaining binding was 90% (CAMK2D; cell-free assay, competition with immobilised ligand; 10 µM).
`CNC(=O)C[C@H](Cc1ccc(C#N)cc1)NC(=O)c1cc(-c2ccc(CN[C@H](C)c3ccc(C)cc3)o2)ccc1Cl`: “activity vs control” 98% (CAMK2D; enzyme activity, inhibitor; 1 µM).
With `Cc1cccc(O[C@H]2CCC[C@@H](C(C)CNCc3ccncc3)C2)c1` (relative stereo) the inhibition was 3% (CAMK2D; cell-free assay, inhibitor; 10 µM).
`COc1ccc(NC(=O)Nc2ccc3c(c2)C(=O)N(C(C)CO)CC(C)C(CN(C)Cc2ccc4c(c2)OCO4)O3)cc1` (centres unmarked) gave a remaining activity of 105% (CAMK2D; kinase activity, KinaseProfiler; 0.03 µM, species human; baseline: control).
For `CN1CC[C@@H](COc2cnc(C#N)cc2-c2ccn3nc(NC(=O)C4CC4)cc3c2)C1`, the inhibition was 16% (CAMK2D; enzyme activity, inhibitor; 1 µM).
`C=CCOc1ccc(C=NOCc2ccc(-c3nc4cc(-c5ccccc5)ccn4c3Nc3ccc(C(=O)O)cc3)cc2)cc1I` has an inhibition of 45.6% (TDP1; enzyme activity, inhibitor; 100 µM, unpurified compound).
With `CNC1C[S+]2CC[S+]3CC[S+](C1)[Ru-4]321([N]=C=S)[n]2c3ccc(OC)cc3c3c4c(c5cc(F)c[n+]1c5c32)C(=O)NC4=O` (centres unmarked) the remaining binding was 87% (CAMK2D; KinomeScan; 0.1 µM; baseline: untreated).

A few entries again:
For `C=CC(=O)Nc1cccc(-c2cnc3[nH]cc(C(=O)NC(C)(C)C)c3n2)c1`, the inhibition was 0% and -2% (CAMK2D; kinase activity; 0.1 µM).
